# Measurements collected from several papers.
# Every numbered part comes from another study and shows a few of its results, in no order. “And” joins repeats or separate records; there may be more than shown.
# Chain of UniProt Q9BZL6 (whole entry, looked up): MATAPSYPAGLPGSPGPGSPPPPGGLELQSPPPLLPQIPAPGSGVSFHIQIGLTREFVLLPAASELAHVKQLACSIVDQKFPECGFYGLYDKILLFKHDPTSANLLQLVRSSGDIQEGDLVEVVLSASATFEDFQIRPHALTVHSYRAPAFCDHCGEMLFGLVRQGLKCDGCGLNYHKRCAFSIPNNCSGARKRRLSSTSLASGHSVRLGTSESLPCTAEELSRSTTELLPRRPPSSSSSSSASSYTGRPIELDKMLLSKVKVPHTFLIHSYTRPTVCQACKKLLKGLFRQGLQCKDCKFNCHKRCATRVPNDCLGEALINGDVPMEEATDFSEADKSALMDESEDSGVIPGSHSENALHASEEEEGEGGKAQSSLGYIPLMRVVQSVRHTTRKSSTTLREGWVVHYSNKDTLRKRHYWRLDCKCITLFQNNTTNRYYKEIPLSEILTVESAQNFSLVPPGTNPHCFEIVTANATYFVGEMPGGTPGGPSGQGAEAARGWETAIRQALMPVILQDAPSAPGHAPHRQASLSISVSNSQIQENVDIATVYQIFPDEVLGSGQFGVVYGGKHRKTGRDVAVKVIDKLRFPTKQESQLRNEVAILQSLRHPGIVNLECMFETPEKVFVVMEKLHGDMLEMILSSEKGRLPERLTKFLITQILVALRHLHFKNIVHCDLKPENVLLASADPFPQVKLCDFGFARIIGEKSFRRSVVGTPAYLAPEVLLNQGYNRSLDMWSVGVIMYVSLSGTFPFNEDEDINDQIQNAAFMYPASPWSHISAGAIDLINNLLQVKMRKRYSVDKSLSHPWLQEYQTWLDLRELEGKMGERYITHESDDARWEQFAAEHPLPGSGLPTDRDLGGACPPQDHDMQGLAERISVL
# Chain of UniProt Q16620 (whole entry, looked up): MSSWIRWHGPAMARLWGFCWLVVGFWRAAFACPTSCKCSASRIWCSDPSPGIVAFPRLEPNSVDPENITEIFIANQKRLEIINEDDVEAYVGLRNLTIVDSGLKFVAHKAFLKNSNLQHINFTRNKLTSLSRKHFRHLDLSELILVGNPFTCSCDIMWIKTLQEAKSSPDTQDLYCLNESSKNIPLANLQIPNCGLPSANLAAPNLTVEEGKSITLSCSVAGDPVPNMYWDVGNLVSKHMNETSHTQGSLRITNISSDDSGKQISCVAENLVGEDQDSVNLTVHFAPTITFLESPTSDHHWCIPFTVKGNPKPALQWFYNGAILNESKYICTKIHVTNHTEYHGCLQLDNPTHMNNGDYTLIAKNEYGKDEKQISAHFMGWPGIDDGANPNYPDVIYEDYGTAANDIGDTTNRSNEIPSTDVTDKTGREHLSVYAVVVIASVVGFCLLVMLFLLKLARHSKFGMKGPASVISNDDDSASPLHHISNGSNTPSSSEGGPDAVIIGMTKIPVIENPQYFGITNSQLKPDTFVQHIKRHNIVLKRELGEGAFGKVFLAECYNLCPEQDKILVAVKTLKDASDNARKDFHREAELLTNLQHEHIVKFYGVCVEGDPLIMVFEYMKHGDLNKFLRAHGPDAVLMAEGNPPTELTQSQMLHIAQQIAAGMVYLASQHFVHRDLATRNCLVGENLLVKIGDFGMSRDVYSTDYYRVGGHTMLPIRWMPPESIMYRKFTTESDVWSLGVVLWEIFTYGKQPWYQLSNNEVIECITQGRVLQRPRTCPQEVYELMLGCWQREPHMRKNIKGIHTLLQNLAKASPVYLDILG
# Chain of UniProt Q9H2K8 (whole entry, looked up): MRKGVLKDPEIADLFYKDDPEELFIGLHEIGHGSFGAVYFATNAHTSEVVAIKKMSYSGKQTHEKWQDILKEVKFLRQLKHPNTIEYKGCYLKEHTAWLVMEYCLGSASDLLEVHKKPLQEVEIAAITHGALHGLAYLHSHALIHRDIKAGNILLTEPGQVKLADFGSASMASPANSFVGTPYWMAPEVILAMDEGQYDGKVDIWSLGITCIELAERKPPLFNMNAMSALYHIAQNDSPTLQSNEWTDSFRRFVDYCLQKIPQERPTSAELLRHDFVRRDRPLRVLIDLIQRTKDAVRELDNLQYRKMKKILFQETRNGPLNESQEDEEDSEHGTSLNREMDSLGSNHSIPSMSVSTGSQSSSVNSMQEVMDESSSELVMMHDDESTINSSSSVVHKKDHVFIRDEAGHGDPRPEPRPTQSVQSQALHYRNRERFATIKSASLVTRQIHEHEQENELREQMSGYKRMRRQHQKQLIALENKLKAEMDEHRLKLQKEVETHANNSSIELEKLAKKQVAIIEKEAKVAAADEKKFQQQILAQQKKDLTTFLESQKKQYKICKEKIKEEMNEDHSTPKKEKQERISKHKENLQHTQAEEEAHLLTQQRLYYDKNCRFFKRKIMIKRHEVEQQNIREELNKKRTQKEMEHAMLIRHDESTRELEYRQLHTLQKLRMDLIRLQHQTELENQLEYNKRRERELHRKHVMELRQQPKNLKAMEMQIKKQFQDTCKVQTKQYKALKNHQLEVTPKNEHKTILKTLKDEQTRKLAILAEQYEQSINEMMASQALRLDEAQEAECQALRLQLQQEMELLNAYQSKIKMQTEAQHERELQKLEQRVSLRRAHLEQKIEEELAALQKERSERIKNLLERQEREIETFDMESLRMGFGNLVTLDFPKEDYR
# Chain of UniProt P43250 (whole entry, looked up): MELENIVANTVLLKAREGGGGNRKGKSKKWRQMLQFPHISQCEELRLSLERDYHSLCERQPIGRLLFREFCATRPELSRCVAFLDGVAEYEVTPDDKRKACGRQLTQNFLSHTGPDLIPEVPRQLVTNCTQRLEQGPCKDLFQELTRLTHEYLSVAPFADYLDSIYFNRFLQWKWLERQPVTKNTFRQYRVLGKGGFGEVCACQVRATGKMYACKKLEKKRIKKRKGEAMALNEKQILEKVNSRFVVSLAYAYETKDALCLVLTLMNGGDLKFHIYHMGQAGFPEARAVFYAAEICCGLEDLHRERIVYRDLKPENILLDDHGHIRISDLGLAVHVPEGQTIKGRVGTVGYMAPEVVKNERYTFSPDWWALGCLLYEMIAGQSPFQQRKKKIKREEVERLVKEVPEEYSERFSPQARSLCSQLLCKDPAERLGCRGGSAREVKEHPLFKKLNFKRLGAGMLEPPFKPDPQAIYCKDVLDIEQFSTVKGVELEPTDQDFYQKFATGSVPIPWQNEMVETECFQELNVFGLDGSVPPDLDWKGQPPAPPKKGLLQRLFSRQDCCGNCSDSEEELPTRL
# Chain of UniProt Q9HCP0 (whole entry, looked up): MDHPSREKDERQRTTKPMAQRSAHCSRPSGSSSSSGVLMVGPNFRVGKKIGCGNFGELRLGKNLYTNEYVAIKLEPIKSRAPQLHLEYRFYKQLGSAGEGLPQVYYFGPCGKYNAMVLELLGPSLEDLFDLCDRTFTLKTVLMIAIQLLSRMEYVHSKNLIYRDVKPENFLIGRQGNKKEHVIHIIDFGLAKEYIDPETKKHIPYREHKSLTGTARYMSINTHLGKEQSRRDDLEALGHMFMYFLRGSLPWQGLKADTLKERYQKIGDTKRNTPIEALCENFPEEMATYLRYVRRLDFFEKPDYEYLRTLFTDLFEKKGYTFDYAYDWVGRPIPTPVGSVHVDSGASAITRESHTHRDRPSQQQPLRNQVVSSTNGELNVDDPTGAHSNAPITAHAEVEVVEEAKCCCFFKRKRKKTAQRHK

# Study 1
# Compound: CNc1ncc2cc(-c3cc(OC)cc(OC)c3Cl)c(=O)n(CCc3ccc(NC(=O)C(C#N)=CC(C)(C)N4CCOCC4)cc3)c2n1
# Effect on: kinase activity
target,tested at,inhibition
"NTRK2 (Homo sapiens, UniProt Q16620)",1 µM,4%
"MAPK13 (Homo sapiens, UniProt O15264)",0.1 µM,-1%
"GRK6 (Homo sapiens, UniProt P43250)",0.1 µM,-2%
"PDGFRB (Homo sapiens, UniProt P09619)",1 µM,35%
"MKNK1 (Homo sapiens, UniProt Q9BUB5)",0.1 µM,8%
"EIF2AK3 (Homo sapiens, UniProt Q9NZJ5)",0.1 µM,39%
"CSNK1G1 (Homo sapiens, UniProt Q9HCP0)",1 µM,2%
"TAOK3 (Homo sapiens, UniProt Q9H2K8)",0.1 µM,1%
"PRKD2 (Homo sapiens, UniProt Q9BZL6)",1 µM,3%
"NEK1 (Homo sapiens, UniProt Q96PY6)",0.1 µM,10%
"SIK1 (Homo sapiens, UniProt P57059)",1 µM,1%
"TTK (Homo sapiens, UniProt P33981)",0.1 µM,0%
"TNIK (Homo sapiens, UniProt Q9UKE5)",0.1 µM,1%
"DYRK3 (Homo sapiens, UniProt O43781)",0.1 µM,-6%
"MINK1 (Homo sapiens, UniProt Q8N4C8)",1 µM,-3%
"PRKCG (Homo sapiens, UniProt P05129)",1 µM,6%
"FYN (Homo sapiens, UniProt P06241)",0.1 µM,0%
"Cyclin-dependent kinase 6, with cyclin D3 (CDK6, Homo sapiens, UniProt Q00534)",0.1 µM,0%
"IKBKE (Homo sapiens, UniProt Q14164)",0.1 µM,-1%

# Study 2
# Structure (SMILES): C[C@@H]1CN(c2ccc(-c3cc(C(=O)NCCOCCOCCOCCOCCNC(=O)/C=C/c4[nH]cc(C(=O)N[C@@H](CC(N)=O)c5ccc(F)c(Cl)c5)c4-c4ccc(Cl)cc4F)ccc3F)cc2NC(=O)c2c[nH]c(=O)cc2C(F)(F)F)C[C@H](C)N1C
# Effect on: thermal unfolding
# Method: differential scanning fluorimetry
# Tested at: 5.5 µM
# Reading: higher = more unfolded
# DCAF1: DDB1- and CUL4-associated factor 1 (DCAF1, Homo sapiens, UniProt Q9Y4B6)
# Chain of UniProt Q9Y4B6 (whole entry, looked up): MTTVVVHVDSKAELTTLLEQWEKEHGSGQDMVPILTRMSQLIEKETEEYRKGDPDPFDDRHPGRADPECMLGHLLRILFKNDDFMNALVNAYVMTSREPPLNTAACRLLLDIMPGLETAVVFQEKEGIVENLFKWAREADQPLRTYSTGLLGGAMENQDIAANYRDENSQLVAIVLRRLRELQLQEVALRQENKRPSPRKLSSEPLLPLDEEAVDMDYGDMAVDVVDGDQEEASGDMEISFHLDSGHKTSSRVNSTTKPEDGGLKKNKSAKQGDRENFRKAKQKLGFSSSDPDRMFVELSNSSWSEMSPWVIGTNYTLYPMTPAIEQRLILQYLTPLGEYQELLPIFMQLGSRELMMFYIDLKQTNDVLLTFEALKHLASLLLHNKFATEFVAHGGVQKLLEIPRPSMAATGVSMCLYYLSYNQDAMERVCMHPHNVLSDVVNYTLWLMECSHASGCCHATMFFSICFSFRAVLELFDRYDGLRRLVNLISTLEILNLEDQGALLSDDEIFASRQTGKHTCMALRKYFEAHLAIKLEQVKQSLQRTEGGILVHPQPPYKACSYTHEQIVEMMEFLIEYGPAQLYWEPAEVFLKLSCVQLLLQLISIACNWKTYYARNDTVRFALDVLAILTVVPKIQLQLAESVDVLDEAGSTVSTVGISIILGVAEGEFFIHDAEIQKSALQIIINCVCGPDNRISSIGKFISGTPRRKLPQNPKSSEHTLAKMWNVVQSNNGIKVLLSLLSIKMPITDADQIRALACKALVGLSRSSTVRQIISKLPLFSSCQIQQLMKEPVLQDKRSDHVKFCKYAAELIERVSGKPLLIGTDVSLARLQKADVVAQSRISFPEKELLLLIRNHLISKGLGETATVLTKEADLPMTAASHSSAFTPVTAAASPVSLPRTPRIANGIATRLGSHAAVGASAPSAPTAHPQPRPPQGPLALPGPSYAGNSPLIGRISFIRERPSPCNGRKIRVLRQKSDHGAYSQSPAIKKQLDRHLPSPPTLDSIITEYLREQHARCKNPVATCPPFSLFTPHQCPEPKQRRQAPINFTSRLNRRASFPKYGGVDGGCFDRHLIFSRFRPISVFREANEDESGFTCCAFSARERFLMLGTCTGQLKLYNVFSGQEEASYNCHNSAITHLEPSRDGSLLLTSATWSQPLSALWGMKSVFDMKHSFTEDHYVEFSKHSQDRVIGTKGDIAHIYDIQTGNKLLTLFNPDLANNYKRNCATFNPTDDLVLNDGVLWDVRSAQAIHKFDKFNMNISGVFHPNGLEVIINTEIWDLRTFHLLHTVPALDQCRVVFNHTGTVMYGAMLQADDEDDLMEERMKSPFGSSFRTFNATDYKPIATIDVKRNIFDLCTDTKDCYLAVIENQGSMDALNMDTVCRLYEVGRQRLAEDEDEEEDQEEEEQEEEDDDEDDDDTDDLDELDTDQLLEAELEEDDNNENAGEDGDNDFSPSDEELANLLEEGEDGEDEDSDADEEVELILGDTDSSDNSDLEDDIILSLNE
# WDR5: WD repeat-containing protein 5 (WDR5, Homo sapiens, UniProt P61964)
target,temperature,SYPRO Orange fluorescence [a.u.]
DCAF1,89.61 °C,35500
WDR5,87.61 °C,53500
DCAF1,36.8 °C,10600
WDR5,89.81 °C,51400
WDR5,45.8 °C,15500
DCAF1,73.21 °C,52000
WDR5,87.41 °C,53600
WDR5,48.2 °C,15900
WDR5,30.4 °C,12800
DCAF1,88.41 °C,36700
DCAF1,55.41 °C,22400

# Study 3
# Structure (SMILES): Cc1nc(C)c(C=[N+]([O-])C(C)(C)C)nc1C
# Method: Western blot
# Host: MPTP mouse model
# Notes: unit not given
# Reference: β-actin
matrix,dose,HO-1 protein level
substantia nigra nuclei,90 mg/kg,75.5 and 75.3 and 93.5
substantia nigra nuclei,10 mg/kg,75.2 and 106 and 82.9
substantia nigra cytosol,90 mg/kg,89.5 and 115 and 98.5 and 108
substantia nigra cytosol,10 mg/kg,65.7 and 57.2 and 60.3 and 78.1

# Study 4
# Compound: CCN1/C(=C/C=C2\CCCC(/C=C/C3=[N+](CC)c4ccccc4C3(C)C)=C2NCCCCCCCCN2CCC(Nc3nc4ccccc4n3Cc3ccc(F)cc3)CC2)C(C)(C)c2ccccc21
# Cell line: U-87 MG
# Tested at: concentration not given
# Reference: DMSO
item,log2 fold change
ZNF841 mRNA,0.891
APBA3 mRNA,0.847
PRSS12 mRNA,-1.28
ZNF280B mRNA,1.27
ACAP2 mRNA,0.933
ZNF530 mRNA,-0.996
UHRF1BP1 mRNA,0.845
BIRC5 mRNA,-1.66
YJU2B mRNA,0.819
APOLD1 mRNA,-1.08
SERP1 mRNA,1.24
HMGB1 mRNA,-1.01
SYNE1 mRNA,1.36
TXLNG mRNA,0.915
ARHGAP33 mRNA,-1.82
TRIM14 mRNA,-0.95
